Assay results from different studies.
Values joined by “and” are separate records of one study, mostly repeats; a detail may differ. Numbers after ± are the reported error. Values after ≈ are worked out from the molar mass of the structure shown.

With `O=C(N/N=C/c1ccc2c(ccc[n+]2Cc2ccccc2)c1)c1cncc(C(=O)N/N=C/c2ccc3c(ccc[n+]3Cc3ccccc3)c2)n1` the ΔTm was 17.4 ± 0.3 °C (22CTA telomeric G4-DNA antiparallel; FRET melting; 1 µM, K10 buffer, DNA 0.2 µM).
With `CO[C@@H]1[C@@H](OC(N)=O)[C@@H](O)[C@H](Oc2ccc3c(O)c(NC(=O)c4ccc(O)c(CC=C(C)C)c4)c(=O)oc3c2C)OC1(C)C` the colony survival was 5.08% (DLD-1 BRCA2-/-; 75 µM, replicate A; reference: untreated).
`O=C(N/N=C/c1cc[n+](Cc2ccccc2)c2ccccc12)C(=O)N/N=C/c1cc[n+](Cc2ccccc2)c2ccccc12` has a ΔTm of 7.9 ± 0.5 °C (22CTA telomeric G4-DNA antiparallel; FRET melting; 1 µM, K10 buffer, DNA 0.2 µM, added: ds26 10 µM).
For `COC1CN([C@H]2CC[C@H]([C@@]3(C)Oc4c(Cl)cc(C(=O)NCc5c(SC)cc(C)[nH]c5=O)c(C)c4O3)CC2)C1`, “log2 fold change” read 4.67 (RNA-seq, measured: RORB; human, whole blood; dose not given, 24 h; reference: pretreatment baseline).
The ΔTm of `C[n+]1cc(/C=N/NC(=O)c2cccc(C(=O)N/N=C/c3cc4ccccc4[n+](C)c3)n2)cc2ccccc21` is reported as 9.7 ± 0.3 °C (22CTA telomeric G4-DNA antiparallel; FRET melting; 1 µM, K10 buffer, DNA 0.2 µM, added: ds26 10 µM).
`C=C(NC(=O)c1csc(-c2nc3c(cc2O)-c2nc(cs2)C(=O)NC(C(C)O)C(=O)NC(=C(C)OC)c2nc(cs2)C(=O)NC2c4nc(cs4)C(=O)NC(COC(=O)c4c5c6c(cccc6n4O)COC(=O)C(OC4CC(C)(O)C(N(C)C)C(C)O4)C2OC5)c2nc-3cs2)n1)C(N)=O` (stereo not drawn) has an MIC50 of 7.8 ng/mL (≈ 5.43 nM) (Streptococcus pyogenes; broth microdilution).
The binding of `C=CC(=O)Nc1cccc(Cn2ncc3cnc(Nc4cnn(CCOC)c4)nc32)c1` is reported as 88% (human JNK2; KINOMEscan; 100 nM; reference: control).
Under “log2 fold change”, `c1ccc(-c2n[nH]cc2-c2ccnc3ccccc23)nc1` is recorded as -0.18 (AKL1 (Candida albicans); kinase binding, MIB/MS competition; Candida albicans lysate; 10 µM; reference: DMSO).
Under “activated partial thromboplastin time”, `COC1OC(C)C(OS(=O)(=O)O)C(OC2OC(C)C(OS(=O)(=O)O)C(OC3OC(C)C(OS(=O)(=O)O)C(OC4OC(C)C(OS(=O)(=O)O)C(OC5OC(C)C(OS(=O)(=O)O)C(OC6OC(C)C(OS(=O)(=O)O)C(OC7OC(C)C(OS(=O)(=O)O)C(OC8OC(C)C(OS(=O)(=O)O)C(OS(=O)(=O)O)C8O)C7O)C6O)C5O)C4O)C3O)C2O)C1O` (stereo not drawn) is recorded as 39 ± 1 s (human plasma; 128 µg/mL).
For `C=CC(=O)N1[C@@H](c2ccc3c(c2)OCO3)c2[nH]c3ccccc3c2C[C@H]1C(=O)N1CCN(C)CC1`, the relative co-enrichment was 136% (human cyclin E1 N112C-3xFLAG:CDK2; co-IP with TMT proteomics, measured: PRPF8; concentration not given, Q6P2Q9; reference: wild type DMSO).
Under “log2 fold change”, `Cc1ncsc1-c1ccc(C(C)NC(=O)C2CC(O)CN2C(=O)C(NC(=O)CCCCCCCCCCN2CCCC(Nc3ncc(Cl)c(Nc4ccccc4S(=O)(=O)C(C)C)n3)C2)C(C)(C)C)cc1` (stereo not drawn) is recorded as -1.26 (22Rv1; RNA-seq, measured: ZNF57 mRNA; concentration not given; reference: DMSO).
Under “activated partial thromboplastin time”, `COC1OC(C)C(OC2OC(C)C(O)C(OC3OC(C)C(OC4OC(C)C(O)C(OC5OC(C)C(OC6OC(C)C(O)C(OC7OC(C)C(OC8OC(C)C(O)C(OC9OC(C)C(OC%10OC(C)C(O)C(OC%11OC(C)C(O)C(OS(=O)(=O)O)C%11OS(=O)(=O)O)C%10OS(=O)(=O)O)C(OS(=O)(=O)O)C9OS(=O)(=O)O)C8OS(=O)(=O)O)C(OS(=O)(=O)O)C7OS(=O)(=O)O)C6OS(=O)(=O)O)C(OS(=O)(=O)O)C5OS(=O)(=O)O)C4OS(=O)(=O)O)C(OS(=O)(=O)O)C3OS(=O)(=O)O)C2OS(=O)(=O)O)C(OS(=O)(=O)O)C1OS(=O)(=O)O` (stereo not drawn) is recorded as 65.7 s and 65.3 s (human plasma; 32 µg/mL).
For `C[n+]1cc(/C=N/NC(=O)c2cc(C(=O)N/N=C/c3cc4ccccc4[n+](C)c3)ncn2)cc2ccccc21`, the ΔTm was 4.5 ± 1.7 °C (22CTA telomeric G4-DNA antiparallel; FRET melting; 1 µM, K10 buffer, DNA 0.2 µM, added: ds26 10 µM).
`COC1OC(C)C(O)C(OC2OC(C)C(O)C(OC3OC(C)C(O)C(OC4OC(C)C(O)C(OC5OC(C)C(O)C(OC6OC(C)C(O)C(OC7OC(C)C(O)C(OC8OC(C)C(O)C(OC9OC(C)C(O)C(OC%10OC(C)C(O)C(OS(=O)(=O)O)C%10OS(=O)(=O)O)C9OS(=O)(=O)O)C8OS(=O)(=O)O)C7OS(=O)(=O)O)C6OS(=O)(=O)O)C5OS(=O)(=O)O)C4OS(=O)(=O)O)C3OS(=O)(=O)O)C2OS(=O)(=O)O)C1OS(=O)(=O)O` (stereo not drawn): “activated partial thromboplastin time” 43 ± 0.9 s (human plasma; 128 µg/mL).
`Nc1ncc(-c2cc(-c3cnn(CC(F)(F)F)c3)ncc2F)nc1C(=O)NC1CNCC(F)C1` (stereo not drawn) has a remaining binding of 72% (TNK1; KINOMEscan; 1 µM; reference: DMSO control).
With `CC[n+]1cccc2cc(/C=N/NC(=O)c3ccc4ccc(C(=O)N/N=C/c5ccc6c(ccc[n+]6CC)c5)nc4n3)ccc21` the ΔTm was 11.9 ± 0.5 °C (22CTA telomeric G4-DNA antiparallel; FRET melting; 1 µM, K10 buffer, DNA 0.2 µM, added: ds26 10 µM).
`COCC1CN(C2CCN(c3cc(OC)c(Nc4ncc(Br)c(Nc5ccc6c(c5P(C)(C)=O)OCCO6)n4)cc3C)CC2)C1` — result for “not evaluable patients”: 0% (RECIST 1.1; advanced EGFR-mutant NSCLC patients; 30 mg once daily).
`c1cc(C2CCCCC2)ccc1-c1cnc(N2CCOCC2)nc1` has a hepatic clearance of 56 mL/min/kg (liver microsome stability; mouse liver microsomes; 1 µM).
`CNS(=O)(=O)Nc1nccc(Cc2c(C)c3ccc(Oc4ncccc4F)cc3oc2=O)c1F` has an IC50 of 5.61 nM (OCI-LY19; cell viability; 7 days).
The ΔTm of `C[n+]1ccc(/C=N/NC(=O)c2cc(C(=O)N/N=C/c3cc[n+](C)c4ccccc34)ncn2)c2ccccc21` is reported as 3.6 ± 0.6 °C (22CTA telomeric G4-DNA antiparallel; FRET melting; 1 µM, K10 buffer, DNA 0.2 µM, added: ds26 10 µM).
With `O=C(c1ccc(C2CCCCC2)cc1)N1CCCC1` the hepatic clearance was 86 mL/min/kg (liver microsome stability; mouse liver microsomes; 1 µM).

Some of these lines once more:
`O=C(N/N=C/c1cc[n+](Cc2ccccc2)c2ccccc12)C(=O)N/N=C/c1cc[n+](Cc2ccccc2)c2ccccc12` has a ΔTm of 7.9 ± 0.5 °C (22CTA telomeric G4-DNA antiparallel; FRET melting; 1 µM, K10 buffer, DNA 0.2 µM, added: ds26 10 µM).
For `COC1CN([C@H]2CC[C@H]([C@@]3(C)Oc4c(Cl)cc(C(=O)NCc5c(SC)cc(C)[nH]c5=O)c(C)c4O3)CC2)C1`, “log2 fold change” read 4.67 (RNA-seq, measured: RORB; human, whole blood; dose not given, 24 h; reference: pretreatment baseline).
The ΔTm of `C[n+]1cc(/C=N/NC(=O)c2cccc(C(=O)N/N=C/c3cc4ccccc4[n+](C)c3)n2)cc2ccccc21` is reported as 9.7 ± 0.3 °C (22CTA telomeric G4-DNA antiparallel; FRET melting; 1 µM, K10 buffer, DNA 0.2 µM, added: ds26 10 µM).
